{"data": "Measurements pooled from the literature", "note": "Each line is one published result; not all experiments were run side by side. Values joined by “and” are separate records of one study, mostly repeats; a detail may differ. ± marks the error that the study gave."}
{"SMILES": "CCN(CC)CC(=O)Nc1cccc(-n2cc(-c3ccc4ccc(-c5cn(-c6cccc(NC(=O)CN(CC)CC)c6)nn5)cc4c3)nn2)c1", "target or system": "RCC4", "assay": "PCR angiogenesis array, measured: CXCL1", "conditions": "5 x IC50, 2 h, normoxia", "how to read": "baseline: untreated", "quantity": "fold regulation", "value": 1.08}
{"SMILES": "O=C(N/N=C/c1ccc(C[n+]2ccccc2)cc1)c1cc(C(=O)N/N=C/c2ccc(C[n+]3ccccc3)cc2)ncn1", "target or system": "hp2 hairpin duplex DNA", "assay": "FRET melting", "conditions": "1 µM", "quantity": "ΔTm", "value": "0.2 ± 0.2 °C"}
{"SMILES": "C=CC(=O)N1CCCC(n2c(=O)c3ncccc3n(Cc3ccc(Oc4ccccc4)cc3)c2=O)C1 (stereo not drawn)", "target or system": "Maver1", "assay": "cell growth or viability, MTT", "conditions": "72 h", "quantity": "IC50", "value": "20000 nM"}
{"SMILES": "Cc1cc(Cl)cc(-c2ccnc3cc(CN4C(=O)C5C(C4=O)C5(C)C)sc23)c1C[C@@H]1CNCCO1 (stereo partly drawn)", "target or system": "CHP-212 resistant", "assay": "PI staining flow cytometry", "conditions": "1 µM, 24 h", "quantity": "cells in S phase", "value": "10.1% and 13% and 9.84%"}
{"SMILES": "NCC(=O)Nc1ccc(Sc2ccc3c(/C=C/c4ccccn4)n[nH]c3c2)cc1", "target or system": "Ba/F3 TEL-VEGFR1", "assay": "cell growth, CCK-8", "quantity": "GI50", "value": "2290 nM"}
{"SMILES": "COc1cc(/C=C/c2cc(C)n[nH]2)ccc1O", "target or system": "A549", "assay": "PI staining flow cytometry", "conditions": "50 µM, 48 h", "quantity": "cells in G2/M phase", "value": "53.7%"}
{"SMILES": "CC(C)(C)c1cc(-c2ccc3cc4ccccc4nc3n2)nc(-c2ccc3cc4ccccc4nc3n2)c1.Cc1ccncc1.[Cl-].[Cl-].[Ru+2].c1ccc2cc3nc4c5cccnc5c5ncccc5c4nc3cc2c1", "target or system": "A-375", "assay": "resazurin", "conditions": "with: light 633 nm, 100 J/cm2", "how to read": "baseline: dark EC50 over light EC50", "quantity": "phototoxicity index", "value": 4}
{"SMILES": "Cc1ncsc1-c1ccc(C(C)NC(=O)C2CC(O)CN2C(=O)C(NC(=O)CCCCCCCCCCN2CCCC(Nc3ncc(Cl)c(Nc4ccccc4S(=O)(=O)C(C)C)n3)C2)C(C)(C)C)cc1 (stereo not drawn)", "target or system": "22Rv1", "assay": "RNA-seq, measured: ONECUT2 mRNA", "conditions": "concentration not given", "how to read": "baseline: DMSO", "quantity": "log2 fold change", "value": -1.21}
{"SMILES": "CC(C)c1ccc(N(C)c2ccc3c(c2)OCC[C@H]3CNc2cnccc2C(=O)O)cc1", "target or system": "HPAC", "assay": "cell growth or viability, ATP luminescence", "conditions": "7 days", "quantity": "IC50", "value": "3.93 nM"}
{"SMILES": "CN(C)c1ccc(-n2cc(COC(=O)[C@]3(C)C=C(C(=O)OC(C)(C)C)C(=O)CC3)nn2)cc1", "target or system": "AP-1 reporter HEK293", "assay": "AP-1 reporter gene, luciferase reporter", "conditions": "3 µM, 6 h, with: PMA 6 ng/mL", "how to read": "baseline: PMA alone", "quantity": "luminescence relative to PMA", "value": 0.421}
{"SMILES": "Cc1ccncc1.[Cl-].[Cl-].[Ru+2].c1cc(-c2ccc3cccnc3n2)nc(-c2ccc3cccnc3n2)c1.c1ccc2cc3nc4c5cccnc5c5ncccc5c4nc3cc2c1", "target or system": "SK-MEL-28", "conditions": "visible light", "how to read": "baseline: dark EC50 over light EC50", "quantity": "phototherapeutic index", "value": 239}
{"SMILES": "CCN(C(=O)c1cc(F)ccc1Oc1nncnc1N1CCC2(C1)CN([C@H](CCCN(C)CCOC)C(C)C)C2)C(C)C", "target or system": "ASPC1", "assay": "cell growth or viability", "conditions": "7 days", "quantity": "GI50", "value": "> 10000 nM"}
{"SMILES": "O=C(Nc1nnc2c1c(-c1ccc(Cl)cc1)nc1sc(=Cc3ccco3)c(=O)n12)c1ccccc1 (mixture of isomers)", "target or system": "COLO 205", "assay": "SRB", "conditions": "10 µM, NCI60 single-dose screen, colon cancer", "how to read": "baseline: untreated", "quantity": "cell growth", "value": "116%"}
{"SMILES": "COC(=O)[C@@]1(C)C=C(C(=O)Nc2cccc(C(=O)Nc3ccc(Nc4nccc(-c5cccnc5)n4)c(C)c3)c2)C(=O)CC1", "target or system": "AP1 reporter HEK293", "assay": "AP1 reporter gene, inhibitor", "conditions": "10 µM, 6 h, compound washed out, unit not given, with: PMA", "how to read": "baseline: PMA alone", "quantity": "reporter activity", "value": 0.119}
{"SMILES": "CC(=O)OC[C@H]1O[C@@H](n2cc(CSc3nc4ccccc4n3Cc3cn([C@@H]4O[C@H](COC(C)=O)[C@@H](OC(C)=O)C(OC(C)=O)[C@H]4OC(C)=O)nn3)nn2)[C@H](OC(C)=O)C(OC(C)=O)[C@@H]1OC(C)=O (stereo in doubt)", "target or system": "MDA-MB-231", "assay": "MTT", "conditions": "7.81 ppm", "quantity": "cytotoxicity", "value": "68.3%"}
{"SMILES": "CC(C)(C)c1cc(-c2ccc3cccnc3n2)nc(-c2ccc3cccnc3n2)c1.[Cl-].[Cl-].[Ru+2].c1ccc2cc3nc4c5cccnc5c5ncccc5c4nc3cc2c1", "target or system": "A-375", "assay": "resazurin", "conditions": "with: light 523 nm, 20 mW, 100 J/cm2", "quantity": "EC50", "value": "4.87 µM"}
{"SMILES": "COC1CN([C@H]2CC[C@H]([C@@]3(C)Oc4c(Cl)cc(C(=O)NCc5c(SC)cc(C)[nH]c5=O)c(C)c4O3)CC2)C1", "assay": "RNA-seq, measured: GNG12", "test system": "human, whole blood", "conditions": "dose not given, 24 h", "how to read": "baseline: pretreatment baseline", "quantity": "log2 fold change", "value": 4.08}
{"SMILES": "COCCCCCNc1nc(NCCCCCCN(C)C)c2cc(NC(=O)/C=C/CN(C)C)ccc2n1", "target or system": "MCF7", "assay": "CellTiter-Glo", "conditions": "50 µM, 48 h, unit not given", "how to read": "baseline: DMSO-treated cells", "quantity": "viability", "value": "0.948 and 0.901 and 0.955"}
{"SMILES": "C1=[N+]2CCCC[N+]3=Cc4ccc5[n]4[Au-]23[n]2c1ccc2-c1nc2ccccc2nc1-5.F[P-](F)(F)(F)(F)F", "target or system": "NCI-H322M", "assay": "NCI60 five-dose screen", "quantity": "TGI", "value": "4.37 -log M"}
{"SMILES": "CC[n+]1cccc2cc(/C=N/NC(=O)c3cccc(C(=O)N/N=C/c4ccc5c(ccc[n+]5CC)c4)c3)ccc21", "target or system": "MYC parallel G4 DNA", "assay": "FRET melting", "conditions": "1 µM, DNA 0.2 µM, with: duplex DNA competitor 10 µM", "quantity": "ΔTm", "value": "3.4 ± 0.2 °C"}
{"SMILES": "COCCn1cc(COc2cccc(Cc3cnc(NC(=O)CSc4nc(C)cc(C)n4)s3)c2)nn1", "target or system": "PC-3M-luc", "assay": "colony formation, colony forming", "conditions": "25 µM", "quantity": "inhibition", "value": "44 ± 7.8%"}
{"SMILES": "Cc1ccc2[c](c1)[Au-]([Cl])([Cl])[n+]1ccccc1-2", "target or system": "A-375", "assay": "Incucyte", "conditions": "2 µM, 6 days, no selenium supplementation", "quantity": "maximum confluency", "value": "64%"}
{"SMILES": "CCCCCCCCCCCC(=O)N[C@@H](CO)C[C@@H](O)c1cccc(CCCCCC)c1", "target or system": "HeLa", "assay": "CERT activity, HPLC-MS/MS lipidomics", "conditions": "1 µM, 24 h, not cell-number normalised", "quantity": "total ceramide level", "value": "62500 pmol/sample and 74100 pmol/sample and 59600 pmol/sample"}
{"SMILES": "COC(=O)c1cc(NC2=NC(=O)C(=Cc3ccc(N(C)C)cc3)S2)ccc1OC(C)=O", "target or system": "MCF7", "assay": "measured: CDC45 mRNA", "conditions": "0.81 µM (IC50), 24 h", "how to read": "baseline: DMSO", "quantity": "fold change", "value": 0.143}
{"SMILES": "COC1=C2CC(C)CC(OC)C(O)C(C)C=C(C)C(OC(N)=O)C(OC)C=CC=C(C)C(=O)NC(=CC1=O)C2=O (stereo not drawn)", "target or system": "Rh30", "assay": "ChIP-seq, measured: H3K36me3 peak", "conditions": "concentration not given, promoter-TSS chr5:179011400-179051999", "how to read": "baseline: untreated control", "quantity": "log fold change", "value": -0.511}
{"SMILES": "[177Lu+3].[Cl-].[Cl-].[Cl-]", "target or system": "4T1", "assay": "flow cytometry", "conditions": "0.4 Bq/cell, 48 h", "quantity": "dead cells", "value": "27.2%"}
{"SMILES": "O=C1CC[C@H](N2Cc3cc(-c4ccn5ncc(Cl)c5n4)ccc3C2=O)C(=O)N1", "target or system": "MOLM-13", "assay": "protein level, TMT proteomics, measured: AAK1", "conditions": "1 µM, 6 h", "how to read": "baseline: DMSO", "quantity": "log2 fold change", "value": -0.000139}
{"SMILES": "CN1CCCNC(=O)c2cccc(c2)C(=O)NCCCN(C)CCCNc2cccc3c2C(=O)c2cccc(c2C3=O)NCCC1", "target or system": "SAS", "assay": "RNA-Seq, measured: TTC31 mRNA", "conditions": "1 µM, 6 h", "how to read": "baseline: untreated cells", "quantity": "log2 fold change", "value": -1.17}
{"SMILES": "CNS(=O)(=O)Nc1nccc(Cc2c(C)c3ccc(Oc4ncccc4F)cc3oc2=O)c1F", "target or system": "ES-2", "assay": "cell viability", "conditions": "7 days", "quantity": "IC50", "value": "> 1000 nM"}
{"SMILES": "Cn1ncc2cc(-c3cncc(Cl)c3N3CCC4(CCNC4=O)CC3)ccc21", "target or system": "LS174T", "assay": "gene expression, microarray, measured: ANKRD37 mRNA", "conditions": "concentration not given, 4 h", "how to read": "baseline: untreated cells", "quantity": "log2 fold change", "value": 1.29}
{"note": "Repeated from above:"}
{"SMILES": "Cc1ncsc1-c1ccc(C(C)NC(=O)C2CC(O)CN2C(=O)C(NC(=O)CCCCCCCCCCN2CCCC(Nc3ncc(Cl)c(Nc4ccccc4S(=O)(=O)C(C)C)n3)C2)C(C)(C)C)cc1 (stereo not drawn)", "target or system": "22Rv1", "assay": "RNA-seq, measured: ONECUT2 mRNA", "conditions": "concentration not given", "how to read": "baseline: DMSO", "quantity": "log2 fold change", "value": -1.21}
{"SMILES": "CC(C)c1ccc(N(C)c2ccc3c(c2)OCC[C@H]3CNc2cnccc2C(=O)O)cc1", "target or system": "HPAC", "assay": "cell growth or viability, ATP luminescence", "conditions": "7 days", "quantity": "IC50", "value": "3.93 nM"}
{"SMILES": "CN(C)c1ccc(-n2cc(COC(=O)[C@]3(C)C=C(C(=O)OC(C)(C)C)C(=O)CC3)nn2)cc1", "target or system": "AP-1 reporter HEK293", "assay": "AP-1 reporter gene, luciferase reporter", "conditions": "3 µM, 6 h, with: PMA 6 ng/mL", "how to read": "baseline: PMA alone", "quantity": "luminescence relative to PMA", "value": 0.421}
{"SMILES": "Cc1ccncc1.[Cl-].[Cl-].[Ru+2].c1cc(-c2ccc3cccnc3n2)nc(-c2ccc3cccnc3n2)c1.c1ccc2cc3nc4c5cccnc5c5ncccc5c4nc3cc2c1", "target or system": "SK-MEL-28", "conditions": "visible light", "how to read": "baseline: dark EC50 over light EC50", "quantity": "phototherapeutic index", "value": 239}
{"SMILES": "CCN(C(=O)c1cc(F)ccc1Oc1nncnc1N1CCC2(C1)CN([C@H](CCCN(C)CCOC)C(C)C)C2)C(C)C", "target or system": "ASPC1", "assay": "cell growth or viability", "conditions": "7 days", "quantity": "GI50", "value": "> 10000 nM"}
